Measured values collected from several papers.
Each numbered part is a random draw from the data of one study; scales do not carry over between parts. “And” joins repeats or separate records; there may be more than shown.
Sequence of UniProt Q16816 (whole entry, looked up): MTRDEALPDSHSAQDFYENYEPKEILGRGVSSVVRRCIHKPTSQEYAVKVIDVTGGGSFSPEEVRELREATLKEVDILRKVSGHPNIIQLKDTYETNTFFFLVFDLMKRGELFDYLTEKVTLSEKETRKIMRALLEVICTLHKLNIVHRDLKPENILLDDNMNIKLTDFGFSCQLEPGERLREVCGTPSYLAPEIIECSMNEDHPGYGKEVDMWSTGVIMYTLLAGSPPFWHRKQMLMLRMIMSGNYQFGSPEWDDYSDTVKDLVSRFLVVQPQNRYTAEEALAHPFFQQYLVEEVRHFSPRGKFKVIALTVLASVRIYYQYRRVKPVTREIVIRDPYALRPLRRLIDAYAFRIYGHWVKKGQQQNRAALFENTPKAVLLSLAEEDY

Set 1
Target: Muscarinic acetylcholine receptor M1 (CHRM1, Homo sapiens, UniProt P11229)
Sequence of UniProt P11229 (whole entry, looked up): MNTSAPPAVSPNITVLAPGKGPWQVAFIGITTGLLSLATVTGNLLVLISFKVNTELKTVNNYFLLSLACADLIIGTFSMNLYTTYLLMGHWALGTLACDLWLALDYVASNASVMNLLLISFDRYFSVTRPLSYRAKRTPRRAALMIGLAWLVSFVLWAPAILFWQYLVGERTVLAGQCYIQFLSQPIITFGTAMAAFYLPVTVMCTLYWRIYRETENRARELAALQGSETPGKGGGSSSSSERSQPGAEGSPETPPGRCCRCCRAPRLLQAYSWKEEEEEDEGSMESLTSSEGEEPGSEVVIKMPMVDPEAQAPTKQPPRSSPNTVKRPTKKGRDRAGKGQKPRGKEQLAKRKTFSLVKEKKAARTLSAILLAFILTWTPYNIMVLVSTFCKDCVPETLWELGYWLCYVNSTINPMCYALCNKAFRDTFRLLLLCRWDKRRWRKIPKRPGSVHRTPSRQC
Effect on: ligand displacement
Tested at: 10 µM
SMILES	inhibition
CN(C)CC#Cc1ccc(OCCCc2sc(N3CCc4cccc(C(=O)Nc5nc6ccccc6s5)c4C3)nc2C(=O)O)c(F)c1	-11.6%
CN1CCN(C(=O)C(C)(C)c2ccc(C(=O)Nc3cn4cc(-c5cc(C(C)(C)C)cc(C(C)(C)C)c5)ccc4n3)cc2)CC1	68.3%
c1ccc(N2CCN(Cc3nc4ccccc4[nH]3)CC2)nc1	-10.7%

Set 2
SMILES: CC[C@@H](C)c1nc2cc(Nc3ccnc4ccc(S(=O)(=O)C(C)C)cc34)ccc2s1.Cl
cell line	effect on	technique	tested at	together with	viability
L929	–	CCK-8	0.781 µM	–	102% and 98.9% and 99.6% and 98.7% and 100%
L929	–	CCK-8	25 µM	–	83.2% and 97.3% and 83.6% and 92.2%
L929	–	CCK-8	12.5 µM	zVAD	111% and 116% and 110%
L929 RIPK3 knockout	–	–	3.125 µM	zVAD	95.8% and 108% and 96.9% and 95.5%
L929 RIPK3 knockout	–	–	1.563 µM	zVAD	99.1% and 108% and 105% and 104%
L929	–	CCK-8	12.5 µM	–	111% and 102% and 112% and 113%
L929 RIPK3 knockout	–	–	50 µM	–	46.9% and 39.1% and 38% and 39.6% and 36.5%
HT-29	necroptosis protection	CCK-8	0.078 µM	TNF-α SMAC mimetic zVAD	20.1% and 12.7% and 13%
L929 RIPK3 knockout	–	–	3.125 µM	–	96.2% and 97.1% and 98.4% and 102% and 105%

Set 3
Target: HLA class I histocompatibility antigen, C alpha chain, allele C*04:01 (Homo sapiens, UniProt P10321)
Effect on: peptide-MHC binding
Molecule type: peptide
Tested at: concentration not given
Molecule	binding
RVMAPRALL	inactive
WPTPKTHPV	inactive
YSRMLYIEF	inactive
YMREVGAAL	inactive
VYAPAGVEL	inactive
KELGVHMSL	inactive
RVRSMANVY	inactive
IYAAISYMI	inactive

Other studies, line by line
Compound	target	effect on	mode	tested at	baseline	measurement	value
N/C(=N\[N+](=O)[O-])N/N=C\c1ccc(-c2cccc([N+](=O)[O-])c2)o1	Phosphorylase b kinase gamma catalytic chain, skeletal muscle/heart isoform (PHKG1, Homo sapiens, UniProt Q16816)	enzyme activity	inhibitor	0.5 µM	control	remaining activity	101%

Excerpt of the above (set 2):
cell line	effect on	technique	tested at	together with	viability
L929 RIPK3 knockout	–	–	3.125 µM	zVAD	95.8% and 108% and 96.9% and 95.5%
L929	–	CCK-8	25 µM	–	83.2% and 97.3% and 83.6% and 92.2%
